# Assay results collected from several papers.
# Every numbered part comes from another study and shows a few of its results, in no order. Changes are numbered by the printed parent chain.

# Set 1 — target: vanadate, free oxyanion; method: microfluidic competitive inhibition; sample: in vitro, cell-free expressed; tested at: not given; reading: lower = stronger binding
# Notes: derived from inhibition constants, unchanged parent 676 nM
# Starting sequence: PafA, mature enzyme, eGFP fusion (Elizabethkingia meningoseptica, UniProt Q9KJX5); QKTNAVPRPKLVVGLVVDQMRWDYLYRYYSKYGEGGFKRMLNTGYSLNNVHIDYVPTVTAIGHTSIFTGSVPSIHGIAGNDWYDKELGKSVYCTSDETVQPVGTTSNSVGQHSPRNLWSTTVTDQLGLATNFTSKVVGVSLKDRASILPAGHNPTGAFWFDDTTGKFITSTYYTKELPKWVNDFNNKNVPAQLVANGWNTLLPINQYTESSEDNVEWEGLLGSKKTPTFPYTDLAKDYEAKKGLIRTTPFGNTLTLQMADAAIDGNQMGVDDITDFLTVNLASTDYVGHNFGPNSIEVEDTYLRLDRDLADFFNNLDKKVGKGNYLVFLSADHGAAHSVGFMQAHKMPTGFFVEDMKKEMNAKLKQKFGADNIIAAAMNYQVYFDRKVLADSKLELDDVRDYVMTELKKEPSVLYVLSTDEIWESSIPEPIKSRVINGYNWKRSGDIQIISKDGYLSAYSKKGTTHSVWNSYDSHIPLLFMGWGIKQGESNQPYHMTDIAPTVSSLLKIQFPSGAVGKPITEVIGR
Change,oxyanion analog dissociation constant
T226G,829 nM
F67V,402 nM
G525V,687 nM
V58A,5.74 µM
G62A,165 nM
G517V,1.11 µM
Y472G,356 nM
S73G,492 nM

# Set 2 — read-out: binding; method: phage display NGS; molecule type: peptide; tested at: concentration not given; notes: panning round 4; relative to: input library
# Target: UDP-N-acetylglucosamine--peptide N-acetylglucosaminyltransferase 110 kDa subunit (OGT, Homo sapiens, UniProt O15294)
# UniProt O15294, sequence (whole entry, looked up): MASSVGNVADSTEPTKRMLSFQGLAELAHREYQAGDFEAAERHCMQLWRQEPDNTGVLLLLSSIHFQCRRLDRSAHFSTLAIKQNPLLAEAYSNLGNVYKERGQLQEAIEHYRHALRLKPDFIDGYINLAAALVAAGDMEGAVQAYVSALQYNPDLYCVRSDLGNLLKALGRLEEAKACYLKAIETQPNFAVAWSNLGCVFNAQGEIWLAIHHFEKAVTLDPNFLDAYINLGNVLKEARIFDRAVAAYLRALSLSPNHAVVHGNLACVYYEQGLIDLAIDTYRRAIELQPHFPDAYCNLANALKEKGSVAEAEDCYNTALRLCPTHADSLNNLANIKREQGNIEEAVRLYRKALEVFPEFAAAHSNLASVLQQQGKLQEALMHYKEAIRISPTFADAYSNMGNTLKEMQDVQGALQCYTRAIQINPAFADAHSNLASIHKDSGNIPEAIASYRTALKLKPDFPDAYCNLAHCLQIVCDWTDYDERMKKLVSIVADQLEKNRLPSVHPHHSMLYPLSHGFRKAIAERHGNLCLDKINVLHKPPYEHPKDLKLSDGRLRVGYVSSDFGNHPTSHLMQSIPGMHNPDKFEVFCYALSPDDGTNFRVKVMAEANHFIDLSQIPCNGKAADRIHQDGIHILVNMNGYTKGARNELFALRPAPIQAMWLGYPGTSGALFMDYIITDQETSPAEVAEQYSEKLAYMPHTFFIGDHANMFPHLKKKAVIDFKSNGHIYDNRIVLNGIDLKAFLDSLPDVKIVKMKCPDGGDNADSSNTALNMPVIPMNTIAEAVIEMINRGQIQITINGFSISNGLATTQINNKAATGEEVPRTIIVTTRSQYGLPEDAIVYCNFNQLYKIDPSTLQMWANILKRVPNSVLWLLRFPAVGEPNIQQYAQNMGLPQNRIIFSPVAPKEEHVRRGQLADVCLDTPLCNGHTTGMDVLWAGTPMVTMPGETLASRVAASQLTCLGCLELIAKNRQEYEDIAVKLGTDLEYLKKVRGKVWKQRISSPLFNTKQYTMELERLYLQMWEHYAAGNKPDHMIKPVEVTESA
Molecule,enrichment fold change
NMYMPKYRITYPMYD,1.56
GPRNLIPKYQIQYTY,1.83
ANKGYYPPVYQIWLG,1.67
QSNYMPKYTIIIPKA,2.35
NFYPPVYAIKITPSR,1.65
VAYPNSYMPKYQIST,1.53
DRLFLPAYQIQVFK,1.89
NQYQPQYQIIFAHQ,1.91

# Set 3 — target: CCNB3, cyclin fold, Cln2 fusion (human); method: yeast growth competition, sequencing; sample: yeast; notes: strong parent motif; relative to: not given; reading: higher = stronger binding
# Starting sequence: viral docking peptide; KGVKRKLFAEDSS; partner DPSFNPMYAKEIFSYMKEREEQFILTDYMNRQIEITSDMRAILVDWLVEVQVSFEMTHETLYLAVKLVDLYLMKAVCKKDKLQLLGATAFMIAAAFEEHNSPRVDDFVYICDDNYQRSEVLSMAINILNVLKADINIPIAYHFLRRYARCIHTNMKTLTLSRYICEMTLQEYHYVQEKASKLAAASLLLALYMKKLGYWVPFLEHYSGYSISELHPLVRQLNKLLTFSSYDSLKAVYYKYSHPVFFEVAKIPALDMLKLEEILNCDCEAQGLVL
Change,normalised enrichment score
A9C,3.27
R5I,0.129
A9S,2.86
A9G,2.35
E10W,1.03
R5T,0.202
D11E,3.12
D11N,2.11

# Single results of other studies
SMILES,target,read-out,method,tested at,quantity,result
CCS(=O)(=O)c1cc2cc(C[C@@](O)(CC(C)(C)c3ccc(F)cc3C(N)=O)C(F)(F)F)[nH]c2cn1,"Cyclin-dependent kinase 2 homolog (CRK2, Plasmodium falciparum, UniProt P61075)",cell-free assay,competition with immobilised ligand,1 µM,remaining binding,100%

# Repeated from above (set 3):
Change,normalised enrichment score
A9G,2.35
E10W,1.03
